Measured values of several laboratories.
A part holds a random share of what one study measured. Substitutions count along the parent as printed.

Set 1
Target: CCND1, cyclin fold, Cln2 fusion (human)
Technique: yeast growth competition, sequencing
Matrix: yeast
Notes: strong parent motif
Baseline: not given
Reading: higher = stronger binding
Starting sequence: PKN2 docking peptide (human); VSAVRKLDFSDTM
`K6N` — result for “normalised enrichment score”: 1.91.
For `A3M`, “normalised enrichment score” read 0.45.
`K6Q` — result for “normalised enrichment score”: 3.28.
For `D8W`, “normalised enrichment score” read 1.
`F9V`: “normalised enrichment score” 0.178.
For `S2D`, “normalised enrichment score” read 2.33.
For `D8F`, “normalised enrichment score” read 1.26.

Set 2
Target: ABI1, truncated, D143A, DHFR fusion (Arabidopsis thaliana)
Technique: DHFR PCA, deep sequencing
Matrix: yeast
Notes: methotrexate growth selection, single substitutions
With: (+)-ABA 200 µM
Baseline: wild-type fitted maximum
Reading: higher = stronger binding
Starting sequence: PYL1, truncated, DHFR fusion (Arabidopsis thaliana); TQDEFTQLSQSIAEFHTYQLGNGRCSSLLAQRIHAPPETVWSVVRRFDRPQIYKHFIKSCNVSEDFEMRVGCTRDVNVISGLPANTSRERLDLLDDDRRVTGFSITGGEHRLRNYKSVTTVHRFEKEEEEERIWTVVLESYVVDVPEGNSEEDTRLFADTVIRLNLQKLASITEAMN; partner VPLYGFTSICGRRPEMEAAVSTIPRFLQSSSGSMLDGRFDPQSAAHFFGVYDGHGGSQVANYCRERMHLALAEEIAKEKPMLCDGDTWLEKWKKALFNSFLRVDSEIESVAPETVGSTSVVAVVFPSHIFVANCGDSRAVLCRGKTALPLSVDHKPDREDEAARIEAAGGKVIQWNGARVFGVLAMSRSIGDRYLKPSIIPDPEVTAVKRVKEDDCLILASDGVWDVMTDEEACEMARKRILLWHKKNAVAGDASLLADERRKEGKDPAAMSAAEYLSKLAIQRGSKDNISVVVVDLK
`F124L`: “relative binding score” 111%.
Under “relative binding score”, `P37F` is recorded as 47.9%.
`E125Q` — result for “relative binding score”: 107%.
For `V143A`, “relative binding score” read 76%.

Set 3
Target: RNA binding protein fox-1 homolog 2, RRM domain, GST-SBP tag (RBFOX2, Homo sapiens, UniProt O43251-10, residues 100-194)
Technique: RNA Bind-n-Seq
Molecule type: RNA
Matrix: in vitro
Tested at: 365 nM
Notes: natural RNA segment, single round, ends assumed
Baseline: no-protein control
Reading: higher = stronger binding
Shared flanks, not repeated: GGGAGUUCUACAGUCCGACGAUC … UGGAAUUCUCGGGUGCCAA
Target sequence (chain): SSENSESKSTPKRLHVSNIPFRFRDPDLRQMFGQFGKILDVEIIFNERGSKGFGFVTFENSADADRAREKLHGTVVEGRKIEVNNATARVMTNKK
`CAAAAUACUCUCAUUUCGGUUUUUCCUGAAACCUUAUUUGGCCAUUCCCAUGGUUUUAUGACAGACAAGCCUUGUCUUCUAUUCAUAUAGAUAUGCACCUUUUUCUACAU` — result for “RBNS enrichment (R)”: 0.614.
For `ACCUCCGAGUGCUUUGUCUCCACUCAGUACCUUGGAUCAGAGCUGCUGAGUUCAGGAUGCCUGCGUGUGGUUUAGGUGUUAGCCUUCUUACAUGGAUGUCAGGAGAGCUG`, “RBNS enrichment (R)” read 0.297.
`UACCUAGCCUCCCCUGGCUGCUCUCCUGUCAGUGAGAUGCAGGAGCCGCCCUCUGCUCUCAGUGGUCUCUGCUACUGAUGAAUCCAGUGGGUUUCCUUUCAUAUUCUCCU`: “RBNS enrichment (R)” 0.211.
Under “RBNS enrichment (R)”, `UGCAUUUGAUUGUAAACUGUACUCGUCCGUGUGGAACUGUACACACCUUAGUUACUUCAUUUGGCUCCGUUGGCUUGUGUUUCUAGGUGAGGAGUUUCCUACCAGUUCAC` is recorded as 0.647.
`CAGAGCUCAAAGCCCAGGUUCAGGGUAAGAAUUUGUAAUACAGAAGAAGAAAGACUCCCUUCACUUUGCCCUUAACACUUGCCUCUGUUAUCUAAGCUUCGUUAAUAGAU`: “RBNS enrichment (R)” 0.345.
`UCUACUAACAUGUUUAGCAAAUGGCUCUGACAGGGUGGCCAUGAGCAGAUGAGACCAGCUCUUGCUUGGUUGGAAGCCACACUGCAGUUUGCAGUUUAGCCUUUGGUGUC`: “RBNS enrichment (R)” 0.45.
For `GGUCAGGCUGUGGCCCUUACCUCACCCGCAGUUCUCGCCCAGUGCUGCAGCCGGCUCACCUCUCUCCGCUUCUUGCACAUCACUGGCCUGUGUGUGCUGCUUGCUCCUGU`, “RBNS enrichment (R)” read 0.56.
Under “RBNS enrichment (R)”, `UCUCUUCCAAGUCUCCAGAUUCUGGAACUCCCGUGUCUUUUUCUUUUCUCACUUGCACCCCUGCACCUCGUUAUGACCCCUAUUUUUCUGGGAUUUUCUUGGUCCUCAUU` is recorded as 4.87.

Mixed results
`PhoQ, residues 284 288 289 292 302 303 WSHMKI` gave a fold induction of 0.842 (PhoP, residues 12 14 15 18 19 HLGGL (Escherichia coli, UniProt P23836); Sort-seq, item: YFP reporter; E. coli; PhoQ-PhoP variant library, with: 10 µM Mg2+; baseline: high Mg2+ state, higher = stronger signaling).

For quick reference, copied from above (set 3):
`UACCUAGCCUCCCCUGGCUGCUCUCCUGUCAGUGAGAUGCAGGAGCCGCCCUCUGCUCUCAGUGGUCUCUGCUACUGAUGAAUCCAGUGGGUUUCCUUUCAUAUUCUCCU`: “RBNS enrichment (R)” 0.211.
Under “RBNS enrichment (R)”, `UGCAUUUGAUUGUAAACUGUACUCGUCCGUGUGGAACUGUACACACCUUAGUUACUUCAUUUGGCUCCGUUGGCUUGUGUUUCUAGGUGAGGAGUUUCCUACCAGUUCAC` is recorded as 0.647.
`CAGAGCUCAAAGCCCAGGUUCAGGGUAAGAAUUUGUAAUACAGAAGAAGAAAGACUCCCUUCACUUUGCCCUUAACACUUGCCUCUGUUAUCUAAGCUUCGUUAAUAGAU`: “RBNS enrichment (R)” 0.345.
